Measurements gathered from unrelated publications.
Parts stem from different laboratories: compare values within a part only. Positions count from the first letter of the parent shown.

Study 1
Target: RNA binding protein fox-1 homolog 2, RRM domain, GST-SBP tag (RBFOX2, Homo sapiens, UniProt O43251-10, residues 100-194)
Technique: RNA Bind-n-Seq
Form: RNA
Matrix: in vitro
Tested at: 365 nM
Notes: natural RNA segment, single round, ends assumed
Baseline: no-protein control
Direction: higher = stronger binding
Constant ends, left off below: GGGAGUUCUACAGUCCGACGAUC … UGGAAUUCUCGGGUGCCAA
Target sequence (chain): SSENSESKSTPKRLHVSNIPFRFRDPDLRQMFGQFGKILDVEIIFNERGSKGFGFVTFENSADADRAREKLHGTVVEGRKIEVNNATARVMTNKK
`GUGAAGAAAUGGAUAUGUUAUAUAUUUCUGCUACCUGGAUUUUCCUGGGUAAUUUGAUGGAAUAUUUUACGUUUGAUUAAAUCAAAACAGUAAACACUCUCUUAGAUACU` — result for “RBNS enrichment (R)”: 0.311.
For `CUGUACGGAAUGCCCUUUGCUAGCCAUGGGCUGGUCACCAGAUUGUUUUGUAAUGCCCGCCCCUUGCCUCGAUAUUGCCAGUUUCUUGUGCAAUAAACAAUCAGCAGCUG`, “RBNS enrichment (R)” read 1.96.
Under “RBNS enrichment (R)”, `CAUUAUAGCUUUUCAUGUAGAUCUGAGGCCCAGGUUACUGUAAUUCUUUUUUUUCCAAUUUCCUUGCUCCCAGGAUCCCCAUCUUGUAUAAAGUUUCUAAGGUGCUCCUC` is recorded as 0.443.
`GAGUUUGAGGCUUGCAGUUGCAACAGCUGGAUGUUUGGUGGUUCUUGCUGCCAGCCAAAUAAAUUGGUGUUUAGUGAACAUUUUCAGUGUUUCCCCGCCAUGCAAAGCUU` — result for “RBNS enrichment (R)”: 0.568.
`AAAAGUAAUUUGCUUAUUCAGUGGGCAUGUAAAGAGUCUGGCCACCAUGUCCCCUCUGCACCGUGACUUGGUGAUGGCUUUGUGGACAUGGCUGAAGCUGGAUGAGAUGU`: “RBNS enrichment (R)” 0.646.
For `AAGCUGCUGGAGCGACUGAUGUACAGUUGUUAUUUGUCUAUAAAUGGAGCUGUUUAUGGCAAUUUAAUACCAUUCUCUUUGUAAAGUGAAUAAAUACUCAUCUUUACCCA`, “RBNS enrichment (R)” read 0.605.
For `CAGGGGGGAAGGACACUGGAGACUUUCUUGUGGGGCUUACUUAGCCUUCUGGUUACAGACUAUUUCCAUGCUAGAAAAUACAUAUUUUAAAAUAGAAGGAAAAACACAGA`, “RBNS enrichment (R)” read 0.753.
`GGUCUGGCUUGCCCCCUCCCUGGGCCUCCAUCACCCCUGAGCAUCCCUCUGGACUCAGAGGGAACAAGGUGGGAGAGAGAGUUUGAGACAGCUCCGUGUGGAGAGCUUAG`: “RBNS enrichment (R)” 0.225.
Under “RBNS enrichment (R)”, `GUUCUGGCUGUUUUCUGUCUGGUGGAGAAGCCUGCUUGUCAAAGCUGACCUCUUAGAGCCGCACAGAUGUGCUAGCCACCAAAAACCUCCUGUAACCAUGCAAGCCUGUA` is recorded as 0.248.
Under “RBNS enrichment (R)”, `GGUCUCAUGGACCAUAGAACUCACAGUACCUGGAUCUGCCCAGCAUGCCCUUUGGACCCAGUUCCCACCGAGGCCCCAGCAGAGUGGAGGGCACAACACUUUCAUUCAGC` is recorded as 24.4.
Under “RBNS enrichment (R)”, `GGUGACUCUGUGUGAACUGGCCUUUGGGAAAGAUCAGAGAGGGCAGAGGUGGCACAGGACAGUAAAGGAGAUGCUGUGCUGGCCUUCAGCCUGGACAGGGUCUCUGCUGA` is recorded as 0.448.
For `CGCCAGGCCCGCGCCAGCUGAGGCCUCAGACUAGCCAGGCAAGAGCCGUCUGACCAGUUGGCUGGCGGUGGUUCUGGUGGAGCACGAGGGAGCCCGGGUGGUGCCCUGAG`, “RBNS enrichment (R)” read 0.356.

Study 2
Target: Prothrombin, mature alpha-thrombin (F2, Homo sapiens, UniProt P00734)
Technique: aptamer microarray, sandwich
Form: DNA with 2'F-ANA
Matrix: in vitro
Tested at: 200 nM
Notes: whole 15-mer aptamer, many near background
Added: Cy3 exosite-II aptamer, 400 nM
Direction: higher = stronger binding
Sequence: GGTTGGTGTGGTTGG
`2'F-ANA at 1 2 3 6 7 10 13 14`: “mean fluorescence intensity” 76.4 a.u.
For `2'F-ANA at 5 6 7 9 10 13`, “mean fluorescence intensity” read 44.9 a.u.
For `2'F-ANA at 1 7 8 9 12 13 14 15`, “mean fluorescence intensity” read 77.1 a.u.
`2'F-ANA at 3 4 5 6 8 10 11 13 14` — result for “mean fluorescence intensity”: 49.3 a.u.
Under “mean fluorescence intensity”, `2'F-ANA at 1 2 3 8 9 10 11 12 15` is recorded as 86.1 a.u.
Under “mean fluorescence intensity”, `2'F-ANA at 1 2 4 6 7 8 9 10 12 14 15` is recorded as 46.2 a.u.
Under “mean fluorescence intensity”, `2'F-ANA at 3 6 7 8 9 10 12 13 14` is recorded as 440 a.u.
Under “mean fluorescence intensity”, `2'F-ANA at 3 7 9 10 12 14 15` is recorded as 432 a.u.
`2'F-ANA at 4 7 10 13 15`: “mean fluorescence intensity” 100 a.u.
`2'F-ANA at 1 3 7 10 11`: “mean fluorescence intensity” 74 a.u.
`2'F-ANA at 1 3 5 9 10 11 12 13`: “mean fluorescence intensity” 48.7 a.u.
For `2'F-ANA at 2 4 5 7 10 11 13 14 15`, “mean fluorescence intensity” read 46.9 a.u.
Under “mean fluorescence intensity”, `2'F-ANA at 2 3 4 5 6 9 13 15` is recorded as 56.1 a.u.
`2'F-ANA at 1 2 3 5 8 9 11 13 14 15`: “mean fluorescence intensity” 46.7 a.u.
`2'F-ANA at 1 3 5 8 9 12 15`: “mean fluorescence intensity” 153 a.u.
For `2'F-ANA at 1 2 4 7 11 12 13 15`, “mean fluorescence intensity” read 174 a.u.
Under “mean fluorescence intensity”, `2'F-ANA at 1 5 6 10` is recorded as 48 a.u.
Under “mean fluorescence intensity”, `2'F-ANA at 3 4 6 10 12 14 15` is recorded as 192 a.u.
For `2'F-ANA at 4 5 7 8 12 13 14`, “mean fluorescence intensity” read 45.1 a.u.
For `2'F-ANA at 4 5 10 12 14`, “mean fluorescence intensity” read 46.8 a.u.
Under “mean fluorescence intensity”, `2'F-ANA at 1 2 7 9 12 14 15` is recorded as 89.9 a.u.
`2'F-ANA at 2 4 9 10 11 12 14`: “mean fluorescence intensity” 82.6 a.u.

Study 3
Target: Centromere-binding protein 1, full length, His-tagged (CBF1, Saccharomyces cerevisiae, UniProt P17106, residues 1-351)
Chain of UniProt P17106 (whole entry, looked up): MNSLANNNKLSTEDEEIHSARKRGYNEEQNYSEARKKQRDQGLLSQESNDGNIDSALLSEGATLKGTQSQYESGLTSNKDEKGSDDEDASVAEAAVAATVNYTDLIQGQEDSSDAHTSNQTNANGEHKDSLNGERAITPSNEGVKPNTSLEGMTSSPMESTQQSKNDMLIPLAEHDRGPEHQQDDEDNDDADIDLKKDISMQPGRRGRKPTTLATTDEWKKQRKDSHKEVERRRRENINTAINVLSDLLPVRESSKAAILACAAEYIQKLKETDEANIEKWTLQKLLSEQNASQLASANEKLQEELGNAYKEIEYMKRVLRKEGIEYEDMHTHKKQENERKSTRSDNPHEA
Technique: competition protein-binding microarray
Form: double-stranded DNA, one strand shown
Matrix: in vitro
Tested at: 2 µM
Notes: whole 60-bp probe, lowest competitor level
Added: Pho4 competitor, 0.05 µM
Direction: higher = stronger binding
Constant ends, left off below: … GTCTTGATTCGCTTGACGCTGCTG
`CTCTAAATCCCGAGTCACGCATACTTTGGCAGAAAG` has a fluorescence intensity of 220 a.u.
`AAAGCGGTAATTTTTCACGTGGTTTCACATATCTAT` gave a fluorescence intensity of 1790 a.u.
The fluorescence intensity of `ATTTTGCACTTCCGTCACATGCAATCGAGGCAAAAA` is reported as 479 a.u.
The fluorescence intensity of `TGCGCAACAACTTGAGGTGTGGGTGTATGTCTAGAA` is reported as 64.3 a.u.
`GCCAAAATGCACTGTCACACGCTAAAGTGCTCGAAT` gave a fluorescence intensity of 79.4 a.u.
The fluorescence intensity of `GTCGGTCAACATCCGCACGATGTTCCGTTTTTCTTT` is reported as 74.7 a.u.
The fluorescence intensity of `TGCGCAACAACTTGGTCGGTGGGTGTATGTCTAGAA` is reported as 61.6 a.u.
The fluorescence intensity of `AGTACACATACTTTGCACGTGCGGACGGAACAATGG` is reported as 2140 a.u.
`ACACTGCTTTGTACCCACGTTTCAAGAAATGGTGTG` gave a fluorescence intensity of 129 a.u.
`AACAGTGGTTCCTGTTCCGTGACGGGTGCTACAACT` has a fluorescence intensity of 64.9 a.u.
`GTCTTGTCTCATTGAACTGTGGGTGTCCCCACTTCA` gave a fluorescence intensity of 78 a.u.
For `TATTGGTTTTGGAAACACGTTTCGAATCTTCAGTAT`, the fluorescence intensity was 141 a.u.
`CTTTCCCGATCTTTTCACGTGTCATTAGCACATTTG` has a fluorescence intensity of 1060 a.u.
The fluorescence intensity of `CTTCTGTAAATTTGTATGGTGGGTGGACGCGCCCCG` is reported as 105 a.u.
The fluorescence intensity of `AAAGCGGTAATTTGCATAGTGGGTGCAGATATCTAT` is reported as 78.6 a.u.
`GTCCTAGATCAAAGACACCTGACGATGATAGCCATT` gave a fluorescence intensity of 186 a.u.
With `AAAGCGGTAATTTTTCACGTGTAGTCAAATATCTAT` the fluorescence intensity was 973 a.u.
The fluorescence intensity of `CATACCCAACCTTGCTTGGTGGGTGAAGATATTTGT` is reported as 67 a.u.
With `AAGGAACAGTTCCATCACGTGTGTTTGTTTGTTGGG` the fluorescence intensity was 2690 a.u.
The fluorescence intensity of `TTGTGCTCGCTGGGCGGCGTGCCGATGCTTTCATCG` is reported as 54.2 a.u.
`AGGGGCCGTCCACCAAACGTGACTCGACGAGTTGAC` gave a fluorescence intensity of 362 a.u.
The fluorescence intensity of `CTAACGAAGGTTTGCTGTGTGGGTGACAAGCCAAGT` is reported as 73.8 a.u.
With `TTATGATACAGTTCTCCCGTGGTTACCAGCTTGGCA` the fluorescence intensity was 86.1 a.u.
For `TTGCTGAGGAAGAGAGACGTGCTTTTGCCAACTCCA`, the fluorescence intensity was 72.4 a.u.

Study 4
Target: ABI1, truncated, D143A, DHFR fusion (Arabidopsis thaliana)
Technique: DHFR PCA, deep sequencing
Matrix: yeast
Notes: methotrexate growth selection, single substitutions
Added: (+)-ABA 200 µM
Baseline: wild-type fitted maximum
Direction: higher = stronger binding
Parent: PYL1, truncated, DHFR fusion (Arabidopsis thaliana); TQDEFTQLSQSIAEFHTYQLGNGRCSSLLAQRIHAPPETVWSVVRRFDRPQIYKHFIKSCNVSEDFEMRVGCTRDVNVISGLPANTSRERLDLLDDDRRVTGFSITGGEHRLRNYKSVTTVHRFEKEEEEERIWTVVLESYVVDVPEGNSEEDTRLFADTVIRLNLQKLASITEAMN
`G21H` — result for “relative binding score”: 97.5%.
For `D95W`, “relative binding score” read 60%.
`G102K` — result for “relative binding score”: 75.7%.
`L28D` — result for “relative binding score”: -2.17%.
`E139A`: “relative binding score” 73.3%.
For `E14Y`, “relative binding score” read 76.7%.
Under “relative binding score”, `V76H` is recorded as 7.72%.
Under “relative binding score”, `S59A` is recorded as 97.8%.
`E4T`: “relative binding score” 95.4%.
`D144W` — result for “relative binding score”: 25.2%.
`I52N` — result for “relative binding score”: 90.6%.
Under “relative binding score”, `E125A` is recorded as 101%.
Under “relative binding score”, `Y18F` is recorded as 89.5%.
`R155H`: “relative binding score” 72%.
For `E131N`, “relative binding score” read 116%.
`T160N`: “relative binding score” 84%.
Under “relative binding score”, `V145T` is recorded as 87.8%.
Under “relative binding score”, `P50N` is recorded as -8.17%.
`G81D` — result for “relative binding score”: 49.2%.
For `V137L`, “relative binding score” read 62.4%.
For `T173K`, “relative binding score” read 13.8%.
`T119G` — result for “relative binding score”: -8.2%.
`V44Q` — result for “relative binding score”: 5.74%.
For `R24G`, “relative binding score” read 80.2%.
`N149C`: “relative binding score” 61.5%.

Study 5
Target: CCND2, cyclin fold, Cln2 fusion (human)
Technique: yeast growth competition, sequencing
Matrix: yeast
Notes: weak parent motif
Baseline: not given
Direction: higher = stronger binding
Parent: RBL2 docking peptide (human); STTRRRLFVENDS
`D12K` — result for “normalised enrichment score”: 0.287.
`T3C`: “normalised enrichment score” 0.243.
For `R4F`, “normalised enrichment score” read 0.551.
For `R6W`, “normalised enrichment score” read 0.00861.
For `D12E`, “normalised enrichment score” read 0.0379.
For `V9L`, “normalised enrichment score” read 0.295.
`L7M` — result for “normalised enrichment score”: -0.00697.
Under “normalised enrichment score”, `S1T` is recorded as 0.214.
Under “normalised enrichment score”, `S13W` is recorded as 0.0378.
Under “normalised enrichment score”, `T3L` is recorded as 0.149.
For `N11S`, “normalised enrichment score” read 0.166.
`S1I`: “normalised enrichment score” 0.156.
`T2R`: “normalised enrichment score” 0.123.
Under “normalised enrichment score”, `D12V` is recorded as -0.0767.
`S1L` — result for “normalised enrichment score”: -0.0262.
`F8I`: “normalised enrichment score” 0.25.
Under “normalised enrichment score”, `N11W` is recorded as 0.308.
For `R6E`, “normalised enrichment score” read 0.494.
`D12S` — result for “normalised enrichment score”: 0.218.
Under “normalised enrichment score”, `R6Y` is recorded as 0.127.
`S13P`: “normalised enrichment score” 0.284.
Under “normalised enrichment score”, `R6I` is recorded as 0.532.
`T3W` — result for “normalised enrichment score”: 0.0279.
`T3K`: “normalised enrichment score” 0.154.
For `D12P`, “normalised enrichment score” read 0.0402.

Repeated from above (study 4):
Under “relative binding score”, `Y18F` is recorded as 89.5%.
Under “relative binding score”, `S59A` is recorded as 97.8%.
`G21H` — result for “relative binding score”: 97.5%.
`G81D` — result for “relative binding score”: 49.2%.
Under “relative binding score”, `V76H` is recorded as 7.72%.
Under “relative binding score”, `E125A` is recorded as 101%.
`I52N` — result for “relative binding score”: 90.6%.
`E4T`: “relative binding score” 95.4%.
For `R24G`, “relative binding score” read 80.2%.
